Experimental data of several laboratories.
Protocols differ between the studies behind these lines. ± marks the error that the study gave.
Target: Metallo-beta-lactamase VIM-2 (VIM-2, Escherichia coli, UniProt Q5U7L7)
Action: inhibitor

The IC50 of CC(C)Cn1nnc(-c2ccccc2NC(=O)[C@H](C)CS)n1 is reported as 1700 nM (enzyme activity, fluorescence; with preincubation).
With CC(C)C1=CCC(C(=O)O)C(C(=O)O)C1 (stereo not shown) the IC50 was 402000 nM (enzyme activity, fluorescence; with preincubation).
CN(C)c1ccc2c(c1)C(=O)N(C(CS)C(N)=O)C2=O (stereo not shown) has a Ki of 410 ± 50 nM (enzyme activity; Km 8 µM, together with: chromacef 25 µM).
For C[C@H](CS)C(=O)Nc1ccccc1-c1nn[nH]n1, the IC50 was 35.5 nM (enzyme activity, fluorescence; with preincubation).
O=C(O)CN(CC(=O)O)CP(=O)(O)O has an IC50 of 680 nM (enzyme activity, fluorescence).
With C[C@H](CS)C(=O)Nc1ccccc1-c1nnn(C)n1 the IC50 was 1820 nM (enzyme activity, fluorescence; with preincubation).
O=C(O)c1cccc(CP(=O)(O)O)n1 has a Ki of 540 nM (enzyme activity).
O=C(O)CNCC(=O)O gave an IC50 of > 200000 nM (enzyme activity, fluorescence).
The IC50 of O=C(O)C(c1ccccc1)n1cnnn1 (stereo not shown) is reported as 962000 nM (enzyme activity, fluorescence; with preincubation).
With NC(CNC(CNC(CC(=O)O)C(=O)O)C(=O)O)C(=O)O (stereo not shown) the Ki was 7 nM.

Some of these lines once more:
The IC50 of O=C(O)C(c1ccccc1)n1cnnn1 (stereo not shown) is reported as 962000 nM (enzyme activity, fluorescence; with preincubation).
For C[C@H](CS)C(=O)Nc1ccccc1-c1nn[nH]n1, the IC50 was 35.5 nM (enzyme activity, fluorescence; with preincubation).
